# Measured values from different studies.
# Every numbered part comes from another study and shows a few of its results, in no order.

# Block 1
# Target: Phosphate system positive regulatory protein PHO4, full length, GST-tagged (PHO4, Saccharomyces cerevisiae, UniProt P07270, residues 1-312)
# Method: competition protein-binding microarray
# Molecule type: double-stranded DNA, one strand shown
# Matrix: in vitro
# Tested at: 2 µM
# Notes: whole 60-bp probe, lowest competitor level
# With: Cbf1 competitor, 0.05 µM
# Direction: higher = stronger binding
# All sequences stand within: … GTCTTGATTCGCTTGACGCTGCTG
# Target sequence (chain): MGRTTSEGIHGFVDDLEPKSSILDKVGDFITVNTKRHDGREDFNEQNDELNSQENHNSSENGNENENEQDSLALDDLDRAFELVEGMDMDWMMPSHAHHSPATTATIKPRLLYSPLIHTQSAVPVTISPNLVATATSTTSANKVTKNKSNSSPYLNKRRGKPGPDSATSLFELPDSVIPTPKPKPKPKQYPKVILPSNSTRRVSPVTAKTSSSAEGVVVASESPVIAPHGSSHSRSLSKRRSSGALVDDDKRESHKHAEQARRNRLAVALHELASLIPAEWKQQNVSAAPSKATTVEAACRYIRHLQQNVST
Oligonucleotide,fluorescence intensity [a.u.]
CAGTCTACCAAGGTGAACGTGTTGACTGTAAAGAAA,10700
CGGGGTTAAGTTTGTCGAGTGGGTGGCTTGCAGCAG,4580
GTAGACCTTGATGTCCATGTGGAAAGCCAAAGCCAT,6540
AGGGCTCAGAACCTGCAGGTGAAGAAGCGCTTTAGA,3290
TGCCCTTCGCAAAGCACCGTGCTTTTAATGGCAATC,7020
TTTTATCTTTTTGGTTCTGTGATGAAGCTACCCGCG,2630
CTAACGAAGGTTTGCTTCGTGGGTGACAAGCCAAGT,5820
AAATTACTAAGTTGTCACAATACTTACCCCGTATGA,4020
CATACCCAACCTTGCTAAGTGGGTGAAGATATTTGT,3640
CTTCTGTAAATTTGTCACGTGGGTGGACGCGCCCCG,16900
TATCAGGATCAACAGCACATGCAAACACCCCAATTC,9200
AAGCTAAAGCTCCGTCACGTGTAGGTGGATACTGTT,14200
CCCAAACTCCCTTTACACATGCTGCTCCATCGCGGG,7710

# Block 2
# Target: PABPC1L2, full length, GST fusion (mouse, UniProt A0ABA7IW68)
# Method: RNAcompete
# Molecule type: RNA
# Matrix: in vitro
# Tested at: 20 nM
# Notes: 7-mer, probes averaged, single round
# Relative to: mean of 7-mers
# Direction: higher = stronger binding
# Construct (chain): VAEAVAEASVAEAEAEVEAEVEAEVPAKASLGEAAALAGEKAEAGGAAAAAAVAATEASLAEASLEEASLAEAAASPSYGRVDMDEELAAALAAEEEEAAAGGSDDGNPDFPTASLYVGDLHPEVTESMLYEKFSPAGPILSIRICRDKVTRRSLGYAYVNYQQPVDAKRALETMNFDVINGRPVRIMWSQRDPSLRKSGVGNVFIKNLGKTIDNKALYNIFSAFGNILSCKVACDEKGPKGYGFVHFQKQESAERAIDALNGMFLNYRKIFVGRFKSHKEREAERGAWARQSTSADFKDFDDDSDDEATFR
Oligonucleotide,7-mer Z-score
AUUCAAC,-0.191
GGACCGC,-0.0808
AAGAAUC,0.505
CACUCGC,-0.262
UCGGAUA,-0.164
UACACUA,-0.213
UCUGGGG,0.0569
CCACCAA,-0.0246
GGUAAUU,-0.0355
UUGUUCU,-0.512
ACACCUG,-0.19
CCAAUAC,-0.15
CGUGGGG,0.307
CCGCAUA,-0.148
CGUCAAC,-0.222
GCCGGGU,-0.124
GCGCUUU,-0.226
AGCUUUU,-0.0989
CAGCUGG,-0.124

# Block 3
# Target: Sal-like protein 4, full length isoform A (SALL4, Homo sapiens, UniProt Q9UJQ4, residues 1-1053)
# Sequence of UniProt Q9UJQ4 (whole entry, looked up): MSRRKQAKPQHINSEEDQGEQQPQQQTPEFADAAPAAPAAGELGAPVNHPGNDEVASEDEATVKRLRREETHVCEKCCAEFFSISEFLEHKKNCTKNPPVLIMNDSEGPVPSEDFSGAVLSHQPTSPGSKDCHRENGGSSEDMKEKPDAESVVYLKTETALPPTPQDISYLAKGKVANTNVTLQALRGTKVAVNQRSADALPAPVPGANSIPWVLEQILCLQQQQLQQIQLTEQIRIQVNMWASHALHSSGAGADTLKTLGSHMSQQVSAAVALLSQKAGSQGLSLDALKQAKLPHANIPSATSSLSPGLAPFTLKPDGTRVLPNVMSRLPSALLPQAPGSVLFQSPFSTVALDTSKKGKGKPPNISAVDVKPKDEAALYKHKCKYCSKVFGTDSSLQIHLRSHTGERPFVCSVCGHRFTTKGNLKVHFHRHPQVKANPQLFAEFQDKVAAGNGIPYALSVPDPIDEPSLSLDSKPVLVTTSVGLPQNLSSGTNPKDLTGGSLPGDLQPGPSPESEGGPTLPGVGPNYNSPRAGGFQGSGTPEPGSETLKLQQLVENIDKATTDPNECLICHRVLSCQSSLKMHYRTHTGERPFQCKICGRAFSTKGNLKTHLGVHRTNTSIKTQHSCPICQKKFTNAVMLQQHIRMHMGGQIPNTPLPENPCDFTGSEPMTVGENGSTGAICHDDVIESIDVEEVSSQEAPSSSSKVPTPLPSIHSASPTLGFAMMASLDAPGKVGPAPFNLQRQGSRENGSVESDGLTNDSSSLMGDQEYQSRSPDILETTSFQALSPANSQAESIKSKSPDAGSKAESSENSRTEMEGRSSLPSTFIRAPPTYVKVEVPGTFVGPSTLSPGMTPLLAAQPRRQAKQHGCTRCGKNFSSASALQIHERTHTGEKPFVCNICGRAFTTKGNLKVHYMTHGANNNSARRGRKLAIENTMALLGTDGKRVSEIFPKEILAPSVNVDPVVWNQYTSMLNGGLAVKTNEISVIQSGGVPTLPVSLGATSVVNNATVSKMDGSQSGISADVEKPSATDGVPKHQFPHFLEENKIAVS
# Method: universal PBM
# Molecule type: double-stranded DNA, one strand shown
# Matrix: in vitro
# Tested at: 600 nM
# Notes: 8-mer, flanks averaged, mean of replicates
# Direction: higher = stronger binding
Oligonucleotide,E-score
CTCACTCC,-0.139
ACGACTTG,-0.0538
ATTCTCTG,0.0643
CTATAGCC,-0.0656
ACTGGAAA,0.104
CAATTCAA,0.164
ATCTAATA,0.336
ACAATCAA,0.123
ACAGTCAT,0.13
AAGGCTCG,-0.169
AATAACTG,0.319
AAAGCCAA,0.021
AAGCAGGC,-0.227
AGCTTCGG,-0.158
GCAGTTAA,0.105

# Further values, each from its own experiment
Molecule,target,test,test system,conditions,scale,measurement,result
"PhoQ, residues 284 288 289 292 302 303 SNSSNI","PhoP, residues 12 14 15 18 19 QQAYL (Escherichia coli, UniProt P23836)","Sort-seq, item: YFP reporter",E. coli,"PhoQ-PhoP variant library, with: 10 µM Mg2+","relative to: high Mg2+ state, higher = stronger signaling",fold induction,1.33

# Repeated from above (block 1):
Oligonucleotide,fluorescence intensity [a.u.]
TTTTATCTTTTTGGTTCTGTGATGAAGCTACCCGCG,2630
CTAACGAAGGTTTGCTTCGTGGGTGACAAGCCAAGT,5820
AAATTACTAAGTTGTCACAATACTTACCCCGTATGA,4020
CATACCCAACCTTGCTAAGTGGGTGAAGATATTTGT,3640
CTTCTGTAAATTTGTCACGTGGGTGGACGCGCCCCG,16900
TATCAGGATCAACAGCACATGCAAACACCCCAATTC,9200
